Assay results gathered from unrelated publications.
Each numbered part is a random draw from the data of one study; scales do not carry over between parts.

Block 1 — technique: protein-binding microarray; form: double-stranded DNA, one strand shown; matrix: in vitro; tested at: 940 nM top; setting: 60-bp whole probe; with: salmon DNA 0.4 mg/ml; baseline: random background probes; direction: higher = stronger binding; all sequences stand within: GCCTAGCAC … GTCTTGATTCGCTTGACGCTGCTG
Target: Interferon regulatory factor 5, full length, phosphomimetic (IRF5, Homo sapiens, UniProt Q13568-2, residues 1-514, S451D/S453D/S456D/S462D)
For `GACGGTATGGGTTTCGGGACGTGCTAG`, “fitted relative affinity” read 2.7 z-score.
Under “fitted relative affinity”, `TTAGTTCTCAGTTTCGATTAGTGCTAG` is recorded as 8.55 z-score.
`TTAGGTATCGGTAACGGTTAGTGCTAG` — result for “fitted relative affinity”: 8.85 z-score.
`GACGGTATCGACACTGCGGACGTGCTA`: “fitted relative affinity” 4.18 z-score.
`GGCTGTTTGGTCCTGATCCTGTGCTAG`: “fitted relative affinity” -0.176 z-score.
`TTAGGTTTCCTATTGCTTTAGTGCTAG` — result for “fitted relative affinity”: 1.43 z-score.
Under “fitted relative affinity”, `TGCACTCTCTACATGTGTTTGTGCTAG` is recorded as 1.02 z-score.
For `TCAGCTTTACTGATGGCACTGTGCTAG`, “fitted relative affinity” read -0.5 z-score.
For `TGAGATATCAGTATCGATTAGTGCTAG`, “fitted relative affinity” read 4.18 z-score.
Under “fitted relative affinity”, `GACGGTCTACTTATCCTGACGTGCTAG` is recorded as 0.148 z-score.
`TTAGGTATCGACGTTCGGTTAGTGCTA`: “fitted relative affinity” 5.03 z-score.
`GACGATTCTAGTTTCGAGACGTGCTAG` — result for “fitted relative affinity”: 4.89 z-score.
Under “fitted relative affinity”, `TTAGATTTCAGTCTCGCTTAGTGCTAG` is recorded as 2.25 z-score.

Block 2 — technique: universal PBM; form: double-stranded DNA, one strand shown; matrix: in vitro; tested at: 600 nM; direction: higher = stronger binding
Target: Sal-like protein 4, full length isoform A (SALL4, Homo sapiens, UniProt Q9UJQ4, residues 1-1053)
Chain of UniProt Q9UJQ4 (whole entry, looked up): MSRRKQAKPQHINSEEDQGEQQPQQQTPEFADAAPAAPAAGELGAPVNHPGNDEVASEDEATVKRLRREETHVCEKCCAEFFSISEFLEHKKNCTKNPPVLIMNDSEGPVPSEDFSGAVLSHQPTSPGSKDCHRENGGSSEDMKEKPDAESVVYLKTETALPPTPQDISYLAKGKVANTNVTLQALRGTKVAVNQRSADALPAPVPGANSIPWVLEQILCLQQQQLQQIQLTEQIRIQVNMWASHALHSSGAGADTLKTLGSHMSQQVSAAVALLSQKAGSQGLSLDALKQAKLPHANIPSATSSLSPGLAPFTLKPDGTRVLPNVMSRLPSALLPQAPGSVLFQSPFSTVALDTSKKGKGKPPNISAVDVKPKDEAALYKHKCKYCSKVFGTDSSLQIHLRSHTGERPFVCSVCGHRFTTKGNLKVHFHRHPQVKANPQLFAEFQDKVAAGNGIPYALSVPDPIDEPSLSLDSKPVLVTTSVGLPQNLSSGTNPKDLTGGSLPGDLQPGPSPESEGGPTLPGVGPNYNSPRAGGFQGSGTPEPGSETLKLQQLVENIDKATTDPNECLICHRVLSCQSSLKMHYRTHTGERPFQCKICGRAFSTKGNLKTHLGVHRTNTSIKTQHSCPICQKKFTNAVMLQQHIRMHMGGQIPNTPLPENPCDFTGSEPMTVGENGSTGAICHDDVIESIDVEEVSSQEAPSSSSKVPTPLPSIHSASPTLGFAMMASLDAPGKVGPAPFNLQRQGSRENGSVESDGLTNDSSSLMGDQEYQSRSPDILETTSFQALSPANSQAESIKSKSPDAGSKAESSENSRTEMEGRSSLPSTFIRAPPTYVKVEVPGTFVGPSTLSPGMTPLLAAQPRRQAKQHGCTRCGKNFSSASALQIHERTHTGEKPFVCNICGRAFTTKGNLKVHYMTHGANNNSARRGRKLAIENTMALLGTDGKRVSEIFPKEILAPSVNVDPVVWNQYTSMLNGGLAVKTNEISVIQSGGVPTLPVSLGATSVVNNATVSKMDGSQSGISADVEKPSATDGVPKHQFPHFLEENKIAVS
Setting: 8-mer, flanks averaged, mean of replicates
`GCGTCACA` has an E-score of -0.0958.
`ACGCCAAT` gave an E-score of 0.0729.
With `CTCGCGGA` the E-score was -0.237.
The E-score of `AGGTGCGC` is reported as -0.171.
`AAGCGGCC` has an E-score of -0.315.
`ATTCAGGA` has an E-score of 0.132.
For `CATCGGAG`, the E-score was -0.128.
With `CAGCGGGG` the E-score was -0.291.
`CTGAATCC` has an E-score of -0.016.
`CAGCAAAA` gave an E-score of 0.123.
`CTCGGTTC` gave an E-score of -0.193.

Block 3 — technique: protein binding microarray; form: double-stranded DNA, one strand shown; matrix: in vitro; tested at: not given; baseline: not given; direction: higher = stronger binding
Target: Histone acetyltransferase KAT6A, winged helix 2, GST fusion (KAT6A, Homo sapiens, UniProt Q92794, residues 85-181)
Setting: 8-mer, flanks averaged, mean of 2 arrays, mostly near background
Construct (chain): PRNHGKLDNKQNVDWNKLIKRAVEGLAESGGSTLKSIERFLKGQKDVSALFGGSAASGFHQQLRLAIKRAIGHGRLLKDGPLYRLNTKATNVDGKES
The E-score of `GGTTGGAA` is reported as 0.0674.
For `TATACAAA`, the E-score was 0.138.
For `ATTTCCAG`, the E-score was -0.0498.
`AGATTCGA` has an E-score of -0.027.
`ACCTGGAT` has an E-score of -0.000845.
With `ACTAGATA` the E-score was 0.0354.
For `GCAGAGTA`, the E-score was 0.0772.

Other studies, line by line
The fold induction of `PhoQ, residues 284 288 289 292 302 303 GTAMQF` is reported as 16.5 (PhoP, residues 12 14 15 18 19 NQCAL (Escherichia coli, UniProt P23836); Sort-seq, item: YFP reporter; E. coli; PhoQ-PhoP variant library, with: 10 µM Mg2+; baseline: high Mg2+ state, higher = stronger signaling).

Excerpt of the above (block 2):
`CTGAATCC` has an E-score of -0.016.
`CAGCAAAA` gave an E-score of 0.123.
